Assay results of several laboratories.
Numbered parts are unrelated; each lists some results of a single study.
Sequence of UniProt Q9HC98 (whole entry, looked up): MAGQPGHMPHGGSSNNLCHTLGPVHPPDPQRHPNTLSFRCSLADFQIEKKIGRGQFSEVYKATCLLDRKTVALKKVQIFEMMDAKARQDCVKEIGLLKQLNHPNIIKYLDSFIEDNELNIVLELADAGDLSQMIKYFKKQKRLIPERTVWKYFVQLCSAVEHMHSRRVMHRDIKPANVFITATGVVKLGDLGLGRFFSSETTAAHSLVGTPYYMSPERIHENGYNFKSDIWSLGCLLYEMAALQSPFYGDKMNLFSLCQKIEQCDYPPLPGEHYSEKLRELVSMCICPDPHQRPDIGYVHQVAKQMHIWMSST
Sequence of UniProt P36896 (whole entry, looked up): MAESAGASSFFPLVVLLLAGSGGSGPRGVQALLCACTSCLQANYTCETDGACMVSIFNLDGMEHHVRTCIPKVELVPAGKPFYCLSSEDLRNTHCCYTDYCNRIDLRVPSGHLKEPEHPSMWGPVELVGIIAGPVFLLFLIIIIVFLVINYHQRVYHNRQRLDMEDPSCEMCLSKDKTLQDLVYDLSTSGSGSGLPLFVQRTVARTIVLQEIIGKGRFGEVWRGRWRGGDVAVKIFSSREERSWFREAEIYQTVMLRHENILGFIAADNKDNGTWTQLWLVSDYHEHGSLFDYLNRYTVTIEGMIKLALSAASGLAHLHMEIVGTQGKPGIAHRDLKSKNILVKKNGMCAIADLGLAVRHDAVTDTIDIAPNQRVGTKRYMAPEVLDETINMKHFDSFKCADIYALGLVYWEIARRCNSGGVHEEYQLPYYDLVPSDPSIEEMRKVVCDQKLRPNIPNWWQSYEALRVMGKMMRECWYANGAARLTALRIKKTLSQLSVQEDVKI
Sequence of UniProt P22607 (whole entry, looked up): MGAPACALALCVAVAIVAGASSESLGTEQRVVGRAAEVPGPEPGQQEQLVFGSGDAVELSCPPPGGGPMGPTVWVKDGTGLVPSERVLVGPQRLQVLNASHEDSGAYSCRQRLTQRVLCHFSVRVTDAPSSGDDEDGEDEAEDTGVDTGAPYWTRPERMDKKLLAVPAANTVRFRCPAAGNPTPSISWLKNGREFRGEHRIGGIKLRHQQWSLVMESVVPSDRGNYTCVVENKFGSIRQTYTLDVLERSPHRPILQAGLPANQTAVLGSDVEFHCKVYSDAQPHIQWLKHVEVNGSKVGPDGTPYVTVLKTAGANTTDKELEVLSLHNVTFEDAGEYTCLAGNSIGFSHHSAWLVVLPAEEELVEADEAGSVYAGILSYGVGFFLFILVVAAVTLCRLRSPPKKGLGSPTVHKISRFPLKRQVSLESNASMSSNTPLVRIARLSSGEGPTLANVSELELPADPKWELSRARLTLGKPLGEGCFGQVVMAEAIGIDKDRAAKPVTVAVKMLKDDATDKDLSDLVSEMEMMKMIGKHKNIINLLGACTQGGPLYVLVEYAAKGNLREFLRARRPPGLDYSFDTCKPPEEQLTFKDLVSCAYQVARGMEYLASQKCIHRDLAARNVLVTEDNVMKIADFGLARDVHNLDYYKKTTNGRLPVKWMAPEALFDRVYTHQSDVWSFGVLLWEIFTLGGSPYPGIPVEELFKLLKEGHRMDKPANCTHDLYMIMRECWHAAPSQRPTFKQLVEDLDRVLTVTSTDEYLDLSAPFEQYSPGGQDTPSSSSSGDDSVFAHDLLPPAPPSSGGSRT
Sequence of UniProt P06239 (whole entry, looked up): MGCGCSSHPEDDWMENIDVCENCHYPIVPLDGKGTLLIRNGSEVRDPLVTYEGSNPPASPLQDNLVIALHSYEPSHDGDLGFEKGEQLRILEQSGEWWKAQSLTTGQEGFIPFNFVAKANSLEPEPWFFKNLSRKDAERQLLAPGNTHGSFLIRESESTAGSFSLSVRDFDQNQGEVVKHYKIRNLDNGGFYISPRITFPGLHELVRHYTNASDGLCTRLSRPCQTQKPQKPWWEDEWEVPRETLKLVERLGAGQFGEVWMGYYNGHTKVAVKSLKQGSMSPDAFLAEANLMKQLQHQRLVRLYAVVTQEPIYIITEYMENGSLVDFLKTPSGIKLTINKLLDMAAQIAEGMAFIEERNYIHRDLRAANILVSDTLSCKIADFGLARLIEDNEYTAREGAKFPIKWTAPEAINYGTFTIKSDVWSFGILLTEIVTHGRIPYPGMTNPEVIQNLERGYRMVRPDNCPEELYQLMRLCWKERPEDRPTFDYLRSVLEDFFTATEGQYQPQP
Sequence of UniProt Q6PHR2 (whole entry, looked up): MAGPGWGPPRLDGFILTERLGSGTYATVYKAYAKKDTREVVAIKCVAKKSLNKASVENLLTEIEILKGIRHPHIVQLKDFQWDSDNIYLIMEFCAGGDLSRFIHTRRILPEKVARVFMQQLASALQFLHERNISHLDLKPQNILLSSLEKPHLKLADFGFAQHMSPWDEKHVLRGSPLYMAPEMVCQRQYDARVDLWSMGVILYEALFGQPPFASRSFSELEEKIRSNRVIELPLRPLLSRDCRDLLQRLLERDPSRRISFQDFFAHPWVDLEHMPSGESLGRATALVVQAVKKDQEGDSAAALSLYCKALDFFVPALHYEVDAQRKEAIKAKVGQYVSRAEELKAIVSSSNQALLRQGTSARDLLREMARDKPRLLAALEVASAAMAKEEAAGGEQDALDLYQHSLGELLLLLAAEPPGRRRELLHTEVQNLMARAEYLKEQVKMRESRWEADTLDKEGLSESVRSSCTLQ
Sequence of UniProt P42684 (whole entry, looked up): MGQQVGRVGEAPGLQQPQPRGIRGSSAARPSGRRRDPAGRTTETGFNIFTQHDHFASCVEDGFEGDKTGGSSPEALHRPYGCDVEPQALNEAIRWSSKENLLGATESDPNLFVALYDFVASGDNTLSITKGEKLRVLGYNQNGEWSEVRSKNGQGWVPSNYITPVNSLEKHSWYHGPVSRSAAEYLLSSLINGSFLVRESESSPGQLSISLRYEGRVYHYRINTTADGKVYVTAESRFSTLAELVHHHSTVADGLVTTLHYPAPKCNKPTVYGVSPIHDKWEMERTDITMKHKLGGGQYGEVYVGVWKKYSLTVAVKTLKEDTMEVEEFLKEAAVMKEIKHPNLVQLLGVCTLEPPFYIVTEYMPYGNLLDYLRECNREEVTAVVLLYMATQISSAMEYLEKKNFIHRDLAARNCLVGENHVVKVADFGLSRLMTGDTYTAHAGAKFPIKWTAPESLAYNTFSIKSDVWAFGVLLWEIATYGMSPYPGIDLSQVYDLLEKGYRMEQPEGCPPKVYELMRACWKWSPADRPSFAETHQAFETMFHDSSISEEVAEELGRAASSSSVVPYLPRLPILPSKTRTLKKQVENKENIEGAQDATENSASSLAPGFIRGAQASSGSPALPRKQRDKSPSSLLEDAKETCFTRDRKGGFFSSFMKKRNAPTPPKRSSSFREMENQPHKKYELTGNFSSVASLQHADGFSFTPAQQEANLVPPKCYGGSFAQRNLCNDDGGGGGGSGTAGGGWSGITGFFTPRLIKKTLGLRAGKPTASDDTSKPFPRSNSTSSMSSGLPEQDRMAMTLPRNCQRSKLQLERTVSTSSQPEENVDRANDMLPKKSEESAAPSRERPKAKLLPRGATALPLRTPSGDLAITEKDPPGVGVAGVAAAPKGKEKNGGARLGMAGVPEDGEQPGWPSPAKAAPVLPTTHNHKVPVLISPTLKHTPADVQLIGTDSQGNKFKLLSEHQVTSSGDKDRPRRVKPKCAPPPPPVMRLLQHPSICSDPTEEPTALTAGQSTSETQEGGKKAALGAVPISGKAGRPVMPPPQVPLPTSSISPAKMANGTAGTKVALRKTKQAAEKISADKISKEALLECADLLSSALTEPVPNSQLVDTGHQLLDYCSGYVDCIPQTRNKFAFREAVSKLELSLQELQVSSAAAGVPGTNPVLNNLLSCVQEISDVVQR
Sequence of UniProt Q99558 (whole entry, looked up): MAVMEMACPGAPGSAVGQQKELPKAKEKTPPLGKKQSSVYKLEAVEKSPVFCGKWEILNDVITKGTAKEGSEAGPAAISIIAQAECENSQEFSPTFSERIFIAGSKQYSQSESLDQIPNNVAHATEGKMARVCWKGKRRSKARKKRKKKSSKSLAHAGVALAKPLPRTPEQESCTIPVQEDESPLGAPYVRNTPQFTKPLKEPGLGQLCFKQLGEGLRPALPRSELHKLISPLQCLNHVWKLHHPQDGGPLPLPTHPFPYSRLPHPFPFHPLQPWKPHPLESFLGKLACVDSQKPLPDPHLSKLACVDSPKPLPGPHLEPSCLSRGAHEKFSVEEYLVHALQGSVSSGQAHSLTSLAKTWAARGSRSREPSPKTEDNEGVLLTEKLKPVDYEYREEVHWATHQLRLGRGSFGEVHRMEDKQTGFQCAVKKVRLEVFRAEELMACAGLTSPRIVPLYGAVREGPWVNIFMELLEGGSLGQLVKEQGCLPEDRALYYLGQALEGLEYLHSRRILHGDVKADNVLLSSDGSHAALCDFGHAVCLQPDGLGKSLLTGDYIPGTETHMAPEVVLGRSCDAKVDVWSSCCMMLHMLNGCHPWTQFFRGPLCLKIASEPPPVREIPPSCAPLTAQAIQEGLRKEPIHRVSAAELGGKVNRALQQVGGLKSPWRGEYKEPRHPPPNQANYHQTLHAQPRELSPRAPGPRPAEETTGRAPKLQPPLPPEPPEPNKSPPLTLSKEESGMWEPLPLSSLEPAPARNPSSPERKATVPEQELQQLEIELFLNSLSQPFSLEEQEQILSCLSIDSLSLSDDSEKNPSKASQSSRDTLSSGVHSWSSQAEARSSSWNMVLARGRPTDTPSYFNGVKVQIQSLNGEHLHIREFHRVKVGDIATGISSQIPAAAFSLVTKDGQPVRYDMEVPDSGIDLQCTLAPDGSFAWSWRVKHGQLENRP

Set 1
Target: PABPC1L2, full length, GST fusion (mouse, UniProt A0ABA7IW68)
Method: RNAcompete
Form: RNA
Medium: in vitro
Tested at: 20 nM
Setting: 7-mer, probes averaged, single round
Baseline: mean of 7-mers
Reading: higher = stronger binding
Quantity: 7-mer Z-score
Residues (chain): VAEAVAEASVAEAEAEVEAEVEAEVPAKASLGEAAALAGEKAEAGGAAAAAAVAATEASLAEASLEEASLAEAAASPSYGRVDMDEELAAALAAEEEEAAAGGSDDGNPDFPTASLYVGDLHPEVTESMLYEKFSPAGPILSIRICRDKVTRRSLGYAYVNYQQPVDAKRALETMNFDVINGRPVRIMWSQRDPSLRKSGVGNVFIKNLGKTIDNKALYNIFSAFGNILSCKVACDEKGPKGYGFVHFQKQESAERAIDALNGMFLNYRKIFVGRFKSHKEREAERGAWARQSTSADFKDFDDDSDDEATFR
Sequence = ACUUCUA; result = -0.13
Sequence = AUUAAUU; result = -0.135
Sequence = CCCCCAU; result = -0.432
Sequence = GGUUUCG; result = -0.46
Sequence = AGAUUUG; result = -0.353
Sequence = AAGCAGU; result = 0.137
Sequence = UAGAUAA; result = 0.245
Sequence = UGGACAU; result = -0.0863

Set 2
SMILES: O=C(Nc1cccnn1)N1CC(C/C=C/c2cncc(Oc3ccc(C(F)(F)F)cn3)n2)C1
Effect on: cell-free assay
Method: competition with immobilised ligand
Tested at: 1 µM
Quantity: remaining binding
target = Casein kinase II subunit alpha' (CSNK2A2, Homo sapiens, UniProt P19784); result = 100%
target = Serine/threonine-protein kinase 10 (STK10, Homo sapiens, UniProt O94804); result = 94%
target = Serine/threonine-protein kinase SIK2 (SIK2, Homo sapiens, UniProt Q9H0K1); result = 100%
target = Serine/threonine-protein kinase STK11 (STK11, Homo sapiens, UniProt Q15831); result = 64%
target = Activin receptor type-1B (ACVR1B, Homo sapiens, UniProt P36896); result = 79%

Set 3
SMILES: N#CC(c1ccnc(NCCc2cccnc2)n1)c1nc2ccccc2s1 (stereo not shown)
Effect on: enzyme activity
Action: inhibitor
Tested at: 0.5 µM
Baseline: control
Quantity: remaining activity
target = Serine/threonine-protein kinase ULK3 (ULK3, Homo sapiens, UniProt Q6PHR2); result = 99.1%
target = Mitogen-activated protein kinase kinase kinase 14 (MAP3K14, Homo sapiens, UniProt Q99558); result = 109%
target = Serine/threonine-protein kinase Nek6 (NEK6, Homo sapiens, UniProt Q9HC98); result = 101%
target = Dual specificity mitogen-activated protein kinase kinase 2 (MAP2K2, Homo sapiens, UniProt P36507); result = 76.2%
target = Fibroblast growth factor receptor 3 (FGFR3, Homo sapiens, UniProt P22607); result = 98.2%
target = Tyrosine-protein kinase JAK3 (JAK3, Homo sapiens, UniProt P52333); result = 106%
target = Tyrosine-protein kinase Lck (LCK, Homo sapiens, UniProt P06239); result = 98.3%
target = Ephrin type-A receptor 3 (EPHA3, Homo sapiens, UniProt P29320); result = 75.1%
target = Ribosomal protein S6 kinase alpha-2 (RPS6KA2, Homo sapiens, UniProt Q15349); result = 89.6%
target = Mitogen-activated protein kinase kinase kinase 5 (MAP3K5, Homo sapiens, UniProt Q99683); result = 102%
target = Serine/threonine-protein kinase A-Raf (ARAF, Homo sapiens, UniProt P10398); result = 97.6%
target = Casein kinase I isoform gamma-2 (CSNK1G2, Homo sapiens, UniProt P78368); result = 87%
target = Serine/threonine-protein kinase TAO2 (TAOK2, Homo sapiens, UniProt Q9UL54); result = 86.4%
target = Tyrosine-protein kinase ABL2 (ABL2, Homo sapiens, UniProt P42684); result = 98.8%

Set 4
Molecule: Histone H2A type 1-B/E (Homo sapiens, UniProt P04908)
Method: cross-linking MS
Setting: hits only
Quantity: interaction screen
partner = H2BC3 (Homo sapiens, UniProt P33778); result = cross-linked
partner = H2AC7 (Homo sapiens, UniProt P20671); result = cross-linked
partner = H2BC20P (Homo sapiens, UniProt Q6DN03); result = cross-linked
partner = H3-7 (Homo sapiens, UniProt Q5TEC6); result = cross-linked

Some of these lines once more (set 1):
Sequence = GGUUUCG; result = -0.46
Sequence = CCCCCAU; result = -0.432
Sequence = UAGAUAA; result = 0.245
Sequence = UGGACAU; result = -0.0863
